Published values pooled from the literature.
Compare with care: the assays were run in different laboratories.
BRD9: Bromodomain-containing protein 9 (BRD9, Homo sapiens, UniProt Q9H8M2)
Chain of UniProt Q9H8M2 (whole entry, looked up): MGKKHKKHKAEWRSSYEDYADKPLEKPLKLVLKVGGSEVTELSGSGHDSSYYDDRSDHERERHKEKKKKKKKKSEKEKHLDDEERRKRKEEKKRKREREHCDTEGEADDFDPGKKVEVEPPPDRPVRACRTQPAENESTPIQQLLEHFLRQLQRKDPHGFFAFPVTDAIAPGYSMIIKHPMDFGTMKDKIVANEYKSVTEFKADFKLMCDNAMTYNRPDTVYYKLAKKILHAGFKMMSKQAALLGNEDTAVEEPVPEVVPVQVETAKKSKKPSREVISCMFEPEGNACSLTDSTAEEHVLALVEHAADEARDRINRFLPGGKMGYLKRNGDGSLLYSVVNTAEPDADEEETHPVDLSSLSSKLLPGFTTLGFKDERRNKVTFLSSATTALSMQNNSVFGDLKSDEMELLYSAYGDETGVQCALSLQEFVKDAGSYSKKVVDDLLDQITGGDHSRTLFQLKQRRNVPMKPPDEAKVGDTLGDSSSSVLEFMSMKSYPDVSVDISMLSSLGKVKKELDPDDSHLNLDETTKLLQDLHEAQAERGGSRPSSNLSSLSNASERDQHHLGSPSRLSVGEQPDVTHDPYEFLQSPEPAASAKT
Fibroblast growth factor 14: Fibroblast growth factor 14 (Homo sapiens, UniProt Q92915)
Chain of UniProt Q92915 (whole entry, looked up): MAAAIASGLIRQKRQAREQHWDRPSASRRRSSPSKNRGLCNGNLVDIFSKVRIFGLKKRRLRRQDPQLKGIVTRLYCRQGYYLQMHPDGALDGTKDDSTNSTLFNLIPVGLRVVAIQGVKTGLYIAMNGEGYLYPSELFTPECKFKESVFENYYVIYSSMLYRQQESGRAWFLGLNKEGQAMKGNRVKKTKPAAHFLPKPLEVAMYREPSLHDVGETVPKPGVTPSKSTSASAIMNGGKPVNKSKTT
D14: D14 (Arabidopsis thaliana, UniProt Q9SQR3)
Chain of UniProt Q9SQR3 (whole entry, looked up): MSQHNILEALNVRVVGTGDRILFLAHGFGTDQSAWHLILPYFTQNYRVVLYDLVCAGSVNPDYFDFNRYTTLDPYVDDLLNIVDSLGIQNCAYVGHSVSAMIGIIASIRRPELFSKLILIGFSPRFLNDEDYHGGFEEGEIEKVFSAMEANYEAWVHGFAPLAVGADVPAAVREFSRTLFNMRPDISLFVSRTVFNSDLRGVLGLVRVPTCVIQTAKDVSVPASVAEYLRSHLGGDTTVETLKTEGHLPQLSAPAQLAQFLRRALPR
Chain of UniProt Q96KB5 (whole entry, unmodified, looked up): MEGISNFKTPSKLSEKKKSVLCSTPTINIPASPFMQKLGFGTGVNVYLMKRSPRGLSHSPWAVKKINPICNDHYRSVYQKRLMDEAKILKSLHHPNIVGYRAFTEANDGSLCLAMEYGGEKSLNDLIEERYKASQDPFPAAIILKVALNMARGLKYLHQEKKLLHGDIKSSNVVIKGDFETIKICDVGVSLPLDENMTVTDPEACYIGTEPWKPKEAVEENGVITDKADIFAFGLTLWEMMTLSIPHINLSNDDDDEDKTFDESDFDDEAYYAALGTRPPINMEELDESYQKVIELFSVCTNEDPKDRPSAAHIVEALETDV
Chain of UniProt O75716 (whole entry, looked up): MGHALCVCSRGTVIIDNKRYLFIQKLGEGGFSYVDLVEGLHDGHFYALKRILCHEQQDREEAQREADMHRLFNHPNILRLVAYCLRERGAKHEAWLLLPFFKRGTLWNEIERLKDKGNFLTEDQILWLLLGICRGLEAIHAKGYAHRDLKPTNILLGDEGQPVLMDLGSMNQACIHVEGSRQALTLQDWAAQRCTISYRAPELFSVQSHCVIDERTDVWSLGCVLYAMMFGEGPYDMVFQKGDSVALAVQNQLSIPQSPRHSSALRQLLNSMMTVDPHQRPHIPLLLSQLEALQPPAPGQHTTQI

`COc1ccccc1-c1cc(C(C)=O)n2ccccc12` has a ΔTm of 6 °C (BRD9; thermal stability, DSF; 200 µM).
`CC(=O)Oc1ccc2c(=O)c(Oc3ccc(Cl)cc3)c(C(F)(F)F)oc2c1` gave a ΔTm of 0.1 °C (Fibroblast growth factor 14; thermal stability; 25 µM).
`CC(=O)/C=C/C=C(C)/C=C/C1=C(C)CC(O)CC1(C)C` (stereo in doubt) gave a ΔTm of 2.99 °C (D14; thermal stability, DSF; 10 µM).
For `Cc1cc2c(cc1N1C(=O)c3cccc4c(Cl)ccc(c34)C1=O)n(C)c(=O)n2C`, the ΔTm was 1.3 °C (Peregrin, bromodomain (BRPF1, Homo sapiens, UniProt P55201); thermal stability, DSF; 10 µM).
For `Cn1c2c(c3ccc(Cl)c(Cl)c31)C(C#N)C1(CCCCC1)NC2=O` (racemic), the ΔTm was 0.7 °C (PBK (Homo sapiens, UniProt Q96KB5); thermal stability, DSF; 10 µM).
The remaining activity of `CNc1ncc2c(/C=C/C(=O)N3CCC(OC)CC3)nn(Cc3cccc(C(F)(F)F)c3)c2n1` is reported as 85% (STK16 (Homo sapiens, UniProt O75716); enzyme activity, inhibitor, radiometric; 1 µM).
For `CNC(=O)c1cc(OC)c(-c2cc(C(C)=O)n3ccccc23)cc1OC`, the ΔTm was 10 °C (BRD9; thermal stability, DSF; 200 µM).
The ΔTm of `CC1=C(/C=C/C(C)=C/C=O)C(C)(C)CCC1` is reported as -0.69 °C (D14; thermal stability, DSF; 10 µM).
With `CC(=O)c1cc(-c2ccccn2)c2ccccn12` the ΔTm was 2.5 °C (BRD9; thermal stability, DSF; 200 µM).
`CC(=O)Nc1ccc(Oc2ccc3c(c2)C(=O)N(c2cc(C)ccc2C)C3=O)cc1` has a ΔTm of 9.3 °C (Fibroblast growth factor 14; thermal stability; 25 µM).

Excerpt of the above:
`CC(=O)Oc1ccc2c(=O)c(Oc3ccc(Cl)cc3)c(C(F)(F)F)oc2c1` gave a ΔTm of 0.1 °C (Fibroblast growth factor 14; thermal stability; 25 µM).
